Experimental data collected from several papers.
Parts stem from different laboratories: compare values within a part only.

Series 1
Target: Interferon regulatory factor 7, full length, phosphomimetic (IRF7, Homo sapiens, UniProt Q92985, residues 1-503, S471D/S472D/S475D/S476D/S477D/S483D/S484D/S487D)
Method: protein-binding microarray
Molecule type: double-stranded DNA, one strand shown
Medium: in vitro
Tested at: 2200 nM top
Setting: 60-bp whole probe
Together with: salmon DNA 0.4 mg/ml
Relative to: random background probes
Direction: higher = stronger binding
Constant ends, left off below: GCCTAGCAC … GTCTTGATTCGCTTGACGCTGCTG
Residues (chain): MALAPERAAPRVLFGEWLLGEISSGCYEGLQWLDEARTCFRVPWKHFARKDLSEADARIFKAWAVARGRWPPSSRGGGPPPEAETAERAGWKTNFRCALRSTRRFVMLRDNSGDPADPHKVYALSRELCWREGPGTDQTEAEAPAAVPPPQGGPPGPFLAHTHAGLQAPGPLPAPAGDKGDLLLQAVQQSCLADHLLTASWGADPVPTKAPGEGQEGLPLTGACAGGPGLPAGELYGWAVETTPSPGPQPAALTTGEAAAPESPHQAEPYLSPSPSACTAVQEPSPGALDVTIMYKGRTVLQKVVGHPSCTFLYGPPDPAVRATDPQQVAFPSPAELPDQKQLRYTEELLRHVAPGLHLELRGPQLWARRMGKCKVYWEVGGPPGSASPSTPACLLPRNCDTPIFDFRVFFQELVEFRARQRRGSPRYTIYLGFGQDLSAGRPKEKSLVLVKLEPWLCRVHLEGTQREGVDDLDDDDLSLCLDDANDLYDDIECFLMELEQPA
| Sequence | fitted relative affinity |
| --- | --- |
| GGCAGGAATAAAGGAGCAGCGTGCTAG | -1.59 z-score |
| TTAGATATCAGAGTGGATTAGTGCTAG | -0.432 z-score |
| CACGATATCAGACTGGAGACGTGCTAG | 0.401 z-score |
| TTAGGTTTCGGTGTCGGTTAGTGCTAG | 4.22 z-score |
| TGGTATTTTTTTCTAATTGAGTGCTAG | 1.26 z-score |
| TCAATCATTGTTTTCAGTTTGTGCTAG | 4.23 z-score |
| TTTTTTTTTTGTATTTTTGAGTGCTAG | 2.41 z-score |
| TTAGGACTGTACTTTCGGTTAGTGCTA | 8.22 z-score |
| GACGGACTGGGGTTTCGGGTCGTGCTA | 2.74 z-score |
| GACGTTTTCAGTCTCGAGACGTGCTAG | 2.13 z-score |
| GACGCTTTCGGGTATCGGGACGTGCTA | 6.76 z-score |
| AAAACTAGGGCATTTAGAAAAGTGCTA | -1.63 z-score |
| TTAGGTCTCGGTATCCGTTAGTGCTAG | 0.945 z-score |
| TCAATGTTCCTTATTTAACTGTGCTAG | 1.16 z-score |
| GACGAACTGAGACTGGACACGTGCTAG | -0.0794 z-score |
| TTACGTTTCGGTCTCGGTTAGTGCTAG | 7 z-score |
| TCATGTTTTTTTCTACTACTGTGCTAG | 1.87 z-score |
| TTAGGACTGGGACTGGATTAGTGCTAG | -0.784 z-score |
| TCACATTTGGAAAATGAAACTGTGCTA | 1.19 z-score |

Series 2
Target: RNA binding protein fox-1 homolog 2, RRM domain, GST-SBP tag (RBFOX2, Homo sapiens, UniProt O43251-10, residues 100-194)
Method: RNA Bind-n-Seq
Molecule type: RNA
Medium: in vitro
Tested at: 365 nM
Setting: natural RNA segment, single round, ends assumed
Relative to: no-protein control
Direction: higher = stronger binding
Constant ends, left off below: GGGAGUUCUACAGUCCGACGAUC … UGGAAUUCUCGGGUGCCAA
Construct (chain): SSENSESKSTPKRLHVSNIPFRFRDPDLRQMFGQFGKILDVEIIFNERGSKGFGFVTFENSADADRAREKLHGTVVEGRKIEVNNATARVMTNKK
| Sequence | RBNS enrichment (R) |
| --- | --- |
| CUCAUUCAGCACCAGCGUUCCCACACAGGCGAGAGGCCGUACCGCUGCGCUGUGUGUGGCAAGGGCUUCUGUCGCUCCUCCACGCUGCUACAGCACCAUCGCGUGCAUAG | 0.314 |
| UCUAUAAUACUUCAUUUUAAAUGUAAAUGGCCACUCUGCAUUUGCAAGGCCCGGUGGUUGACAUCUGUGUGGUUUGUUAGAUGAGACAAAAUGACCAUUAAAUGAGUUUA | 0.764 |
| CAUUUACUAUGAAUUUACUUCCUCCCAAGAAUUUGGACUGGCCGUCAGACUGUUGCUACAUACAAUUGCCUUUGUAUCUUCGUAUGAAAUAAAAGGUCAUUUGUUCCUGU | 0.421 |
| GCCCACCCUAUUCUAAGGAACCACAAUAACUUACUCUGGCCCCAGUGUUAAAACGAUCUUUCAGAUUUAGAGUGACUAUGUAAGAAUUUAGGAUUUCCUCUUUUCCAGGC | 0.271 |
| UGGUGAUCCUGUACGGUGUGGUCUAUGAAUUGCUGCACUGCAAAGCCACACAGCUGCAAAACGUUGAAGAAAAUCAUUGAUGUAUAAAAAUUGCAGUAUCUUUCAAAUCA | 0.465 |
| UAAUGGAGUCGUCAGACGCCUCCGCUUACCGUGAACCAGUAUGAGCUUGGGAGAAAGGAACUGGAAGAACAUGAAAAAGCAGGGGCAUGUGUAGACAUUAGUGAAAAUUA | 1.13 |
| UGUGACACUCAGGCCUCAGAUGAGCCUCGCUUGCCUUCACUGCUUCUGUUUUAAACAGUAGUAAAAAACUGGCGUUCAAGGCAGAGUCCACAGGUGCUUAAAGGACACUU | 0.473 |
| AGGUUGUUUCAGACAGACAGCUUUAUGCAGCCCUUCUCAUUUAGGGUCCUCUCUUCUCUUCCCCGGGGAGAGAAUAAGGGCUCACUAAGCAGAGGAACCCACUUAGAGGA | 0.286 |
| GGGUUUCCUUUCAUAUUCUCCUGGCCAACUCCAGAGUGGCCUCCUAACCCAGCAGGCCCACCCCUCUGGGAGUCGUUGGUCUCCACCAGUUUUGUUAGGCUUUGAGUGUC | 0.305 |
| AAUAAUUUUAAUGAUUCUUAAGCUAUUUGAAGGAAAGAAUAUGGAUUUCUCAUGUCUUGAGGUUUUGUUCAUGCCCCUAUGACUGACCAAUGUGAUAAGGACUUUAAAAA | 0.577 |
| UCAAAAUUAUAAUGCAGUUCUAAUGGUCAGCAUAUUUUGAUAUUAAAUUUAAAGAUCACCUCUCUGCAUUUGUUUUUAAAUUAUGCUAAUACACCACACAUUAUGUUGGU | 0.352 |
| CGCCAUUAGACUGAAAAAACAAUGGCCUGAUGGUUGAAGUACAUUUUCAUUUGCAGAAUAUUAAAGCACUAAAAAAAAAAAAAACCUAUCUUGGAAGUUGUAUGAUUUGC | 0.941 |

Series 3
Target: Histone acetyltransferase KAT6A, winged helix 2, GST fusion (KAT6A, Homo sapiens, UniProt Q92794, residues 85-181)
Method: protein binding microarray
Molecule type: double-stranded DNA, one strand shown
Medium: in vitro
Tested at: not given
Setting: 8-mer, flanks averaged, mean of 2 arrays, mostly near background
Relative to: not given
Direction: higher = stronger binding
Construct (chain): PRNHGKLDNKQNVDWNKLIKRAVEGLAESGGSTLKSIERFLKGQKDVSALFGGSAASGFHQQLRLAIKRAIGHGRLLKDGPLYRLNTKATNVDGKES
| Sequence | E-score |
| --- | --- |
| GAACAGTC | -0.14 |
| AGTGTCCG | 0.0266 |
| GTTTTGTA | 0.0435 |
| GCCTCCGA | 0.0516 |
| CCATTAAA | 0.00997 |
| CAATAGAC | -0.0947 |
| CACTGGAG | -0.0687 |
| AAATGTGT | -0.00961 |
| ATGGTTGC | -0.0457 |
| ACAGTCGA | -0.0766 |
| GGTCGCTA | -0.0507 |
| TCGCTTCA | 0.104 |
| AGTAGCTC | -0.0552 |
| ACTACCGG | -0.197 |
| ATGGCGAG | 0.00394 |
| AAGGTCCG | 0.111 |
| CAGAGTTA | -0.0701 |
| AGGATTCG | -0.0797 |
| AGAAGCAG | 0.0984 |
| GGGCGCTA | 0.062 |
| GATTACAC | 0.0848 |
| GTGCCGCA | 0.104 |
| CAGCCTAA | -0.0893 |

Series 4
Target: Ras GTPase-activating protein-binding protein 1, full length (G3BP1, Homo sapiens, UniProt Q13283)
Sequence of UniProt Q13283 (whole entry, looked up): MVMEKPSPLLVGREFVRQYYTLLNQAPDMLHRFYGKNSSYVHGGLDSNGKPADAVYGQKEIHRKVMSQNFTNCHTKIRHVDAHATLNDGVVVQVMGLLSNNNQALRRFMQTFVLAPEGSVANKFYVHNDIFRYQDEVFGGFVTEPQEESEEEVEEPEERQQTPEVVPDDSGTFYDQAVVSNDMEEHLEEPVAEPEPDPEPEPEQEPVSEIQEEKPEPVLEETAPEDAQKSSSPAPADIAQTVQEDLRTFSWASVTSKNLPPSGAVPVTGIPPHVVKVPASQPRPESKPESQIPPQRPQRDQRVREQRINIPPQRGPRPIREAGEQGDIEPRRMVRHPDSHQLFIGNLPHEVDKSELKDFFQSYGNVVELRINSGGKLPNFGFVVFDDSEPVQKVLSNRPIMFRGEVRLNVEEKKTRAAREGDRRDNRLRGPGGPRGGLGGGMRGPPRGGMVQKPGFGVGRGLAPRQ
Method: RNA Bind-n-Seq
Molecule type: RNA
Medium: in vitro
Tested at: 200 nM
Setting: whole 134-nt RNA, ends assumed
Together with: 150 mM KCl
Relative to: input library
Direction: higher = stronger binding
Constant ends, left off below: GGGAGUUCUACAGUCCGACGAUC … UGGAAUUCUCGGGUGUCAAGG
| Sequence | log2 enrichment |
| --- | --- |
| GUCCUGUGCUACACAUCGUAUGUACCGAAUCGGGUUUUUUUGGGAAAAAGGGUUUGGGAAAGUAUUAUGUUACGCCGUUCGGAUCUGCAC | -0.677 |
| ACCAUGCAGGUGGGCAUCUUUGGGAAGUGGGGCAAGGGGGGGAAAGGGAGGGGGGUAACACUUUGGGAACAGGUGGUCCCAGGUCGUUUC | 1.04 |
| UCCUGUGCUACACAUCGUAUGUACCGAAUCAAACCCCCCCAAAUUUUUUUAAAUUUAAAAAAGUAUUAUGUUACGCCGUUCGGAUCUGCA | 0.391 |
| AAGUCCUGUGCUACACAUCGUAUGUACCGAAUCGGAAAAAAAGGAAAAAAAGGAGGAAAGUAUUAUGUUACGCCGUUCGGAUCUGCACUU | -1.1 |
| UGGGAGGUGGAUUUUGUUUAUUUUUUUAGCUCAUUUCCAGGGGUGGGAGUUUUUUUUUAAUAUGUGUCAUGAAUAAAGUUGUUUUUGAAA | 0.514 |
| UGUGCUACACAUCGUAUGUACCGAAUCGGGGCCCCCCCGGGGCCCCCCCGGGCCCCCCCGGGAAAGUAUUAUGUUACGCCGUUCGGAUCU | -1.41 |
| AGUCCUGUGCUACACAUCGUAUGUACCGAAUCGGAAAAAAAGGUUUUUGGUUUUUGGAAAGUAUUAUGUUACGCCGUUCGGAUCUGCACU | -1.74 |
| UAACUUUAGAGGAGGAUCUGAUGGAUAUGGCAGUGGACGUGGAUUUGGGGAUGGCUAUAAUGGGUAUGGAGGAGGACCUUGAGGUGGCAA | 0.157 |
| GCAUAAUGGAUAUUUUUUAACUUGGCGAGAUGUGUCUCUCAAUCCUGUGGCUUUGGUGAGAGAGUGUGCAGAGAGCAAUGAUAGCAAAUA | 0.545 |
| UAACUUUAGAGGAGGAUCUGAUGGAUAUGGCAGUGGACGUGGAUUUGGGGAUGGCUAAAAUGGGUAUGGAGGAGGACCUGGAGGUGGCAA | 0.205 |
| ACCAUGCAGGUGGGCAUCUUUGGGAAGUGGGGCAAGGGGGGGAUAGGGAGGGGGGUAACACUUUGGGAACAGGUGGUCAAAGGUCGUUUC | 1.29 |
| UGGACUUGCGGGUUCCCAUCUGGGACCAGGACAUACAGUUUCUCCCAGGAUCACAGAAGCUUGUCACCUGCACAGGGUACCACCAGGUAA | 0.0449 |
| UCCCUGAGACGGCGGGCAACAGCAUCGGCAGGAACGCCAUGGCCGUCCCCUCCCAGCUCUUACCUUACCAUCGACCUCACAGACGACACA | 0.953 |
| UCUGUUUCCUCUGCCAGUGGCAAUGCAACACCUAACACUCCUGGGGAUGAGUCUCCCUGUGGUAUUAUUAUUCCUCAUGAAAACUCACCA | 0.248 |
